{"data": "Assay results of several laboratories", "note": "Compare with care: the assays were run in different laboratories."}
{"Structure (SMILES)": "CN[C@H](CC(C)C)C(=O)N[C@H]1C(=O)N[C@@H](CC(N)=O)C(=O)N[C@H]2C(=O)N[C@H]3C(=O)N[C@H](C(=O)N[C@H](C(=O)O)c4cc(O)cc(O)c4-c4cc3ccc4O)[C@H](O)c3ccc(c(Cl)c3)Oc3cc2cc(c3O[C@@H]2O[C@H](CO)[C@@H](O)[C@H](O)[C@H]2O[C@H]2C[C@](C)(N)[C@H](O)[C@H](C)O2)Oc2ccc(cc2Cl)[C@H]1O", "target or system": "Bifidobacterium adolescentis", "assay": "broth microdilution", "system": "DSM 108263", "measurement": "MIC", "result": "0.17 µM"}
{"Structure (SMILES)": "CCn1cc(-c2cc(Cn3ccnc3)cc3c2CCN([C@H](c2cc(OC)ccn2)C2CC2)C3=O)c(C(F)(F)F)n1", "target or system": "BXPC-3", "assay": "cell growth, inhibitor", "setting": "120 h", "measurement": "EC50", "result": "3.23 µM"}
{"Structure (SMILES)": "C#CCON=C1C=CC(=C(C#N)c2ccccc2)C=C1", "target or system": "Kluyveromyces marxianus", "assay": "broth dilution", "system": "ATCC 204093", "setting": "48 h, 37 °C", "measurement": "MIC", "result": "16 µg/mL"}
{"Structure (SMILES)": "C[C@H](N[C@@H](CCc1ccccc1)C(=O)O)C(=O)N1[C@H](C(=O)O)C[C@@H]2CCC[C@@H]21", "target or system": "Nedd8-cullin1 interaction", "assay": "neddylation, AlphaScreen", "setting": "100 µM", "measurement": "inhibition", "result": "28.8%"}
{"Structure (SMILES)": "CC1(C)S[C@@H]2[C@H](NC(=O)[C@H](N)c3ccc(O)cc3)C(=O)N2[C@H]1C(=O)O", "target or system": "Salmonella enterica", "measurement": "MIC", "result": "16 µg/mL"}
{"Structure (SMILES)": "Cn1cc(-c2ccc(-c3cncc(Cl)c3N3CCC4(CCNC4=O)CC3)cc2)cn1", "target or system": "COLO 205", "assay": "microarray, refers to: PAH", "setting": "concentration not given, 2 h", "how to read": "reference: untreated cells", "measurement": "fold change in expression", "result": -1.32}
{"Structure (SMILES)": "COc1cc(CNc2ccc(C(=O)O)cc2)cc(OC)c1O", "target or system": "Salmonella enterica", "measurement": "MIC", "result": "64 µg/mL"}
{"Structure (SMILES)": "OC(Cn1cncn1)(Cn1cncn1)c1ccc(F)cc1F", "target or system": "Candida albicans", "assay": "growth, broth microdilution", "setting": "24 h", "measurement": "MIC", "result": "2 µg/mL"}
{"Structure (SMILES)": "COc1cnc2cccc(N3CCc4c(cc(Cn5ccnc5C)cc4-c4cn(C)nc4C(F)(F)F)C3=O)c2c1", "target or system": "HEC-1B", "assay": "cell growth, inhibitor", "setting": "120 h", "measurement": "EC50", "result": "4.07 µM"}
{"Structure (SMILES)": "CNC(C)C1CCC(N)C(OC2C(N)CC(N)C(OC3OCC(C)(O)C(NC)C3O)C2O)O1 (centres unmarked)", "target or system": "Pseudomonas aeruginosa", "system": "clinical isolate RKI-No_578/15", "measurement": "MIC", "result": "4 µg/mL"}
{"Structure (SMILES)": "COc1ccccc1CNc1ccc(C(=O)O)cc1", "target or system": "Salmonella enterica", "measurement": "MIC", "result": "64 µg/mL"}
{"Structure (SMILES)": "CCOC(=O)CON", "target or system": "Candida tropicalis", "system": "CT2", "measurement": "MIC", "result": "32 µg/mL"}
{"Structure (SMILES)": "CC1(C)SC2C(NC(=O)C(NC(=O)C3=C(O)C(c4ccccc4)NC3=O)c3ccccc3)C(=O)N2C1C(=O)O (centres unmarked)", "target or system": "Escherichia coli", "assay": "broth microdilution", "system": "ATCC 25922 wild type", "setting": "no clavulanic acid", "measurement": "MIC", "result": "12.5 µg/mL"}
{"Structure (SMILES)": "N=C(N)c1ccc(OCc2cc(COc3ccc(C(=N)N)cc3)cc(-c3ccccc3)c2)cc1", "target or system": "Escherichia coli", "system": "mcr-1 polymyxin-resistant", "setting": "20 h, compound alone", "measurement": "MIC", "result": "100 µg/mL"}
{"Structure (SMILES)": "CCCCCCCCCCCC(=O)ON=C1C=CC(=C(C#N)c2ccccc2)C=C1", "target or system": "Kluyveromyces marxianus", "assay": "broth dilution", "system": "ATCC 204093", "setting": "48 h, 37 °C", "measurement": "MIC", "result": "128 µg/mL"}
{"Structure (SMILES)": "Cc1c(CN(C)C(=O)/C=C/c2cnc3c(c2)CCC(=O)N3)oc2ccccc12", "target or system": "Escherichia coli", "assay": "broth microdilution", "system": "AR-0493", "measurement": "MIC", "result": "> 32 µg/mL"}
{"Structure (SMILES)": "N=C(N)c1ccc(OCc2cc(Br)cc(COc3ccc(C(=N)N)cc3)c2)cc1", "target or system": "Escherichia coli", "system": "mcr-2 polymyxin-resistant", "setting": "20 h, compound alone", "measurement": "MIC", "result": "25 µg/mL"}
{"Structure (SMILES)": "O=C(O)c1ccc(NCc2ccc(Cl)cc2)cc1", "target or system": "Salmonella enterica", "measurement": "MIC", "result": "64 µg/mL"}
{"Structure (SMILES)": "O=C(O)c1cn(C2CC2)c2cc(N3CCNCC3)c(F)cc2c1=O", "target or system": "Salmonella enterica", "assay": "broth microdilution", "system": "Kentucky, susceptible", "measurement": "MIC", "result": "0.016 µg/mL"}
{"Structure (SMILES)": "C#CCOC(=O)ON=C1C=CC(=C(C#N)c2ccccc2)C=C1", "target or system": "Kluyveromyces marxianus", "assay": "broth dilution", "system": "ATCC 204093", "setting": "48 h, 37 °C", "measurement": "MIC", "result": "8 µg/mL"}
{"Structure (SMILES)": "Cc1ccc(CCC(=O)Nc2nnc(S(N)(=O)=O)s2)cc1", "target or system": "Bifidobacterium adolescentis", "system": "HM-633", "measurement": "MIC", "result": "> 784 µM"}
{"Structure (SMILES)": "N#CC(=C1C=CC(=NOC(=O)OCc2ccccc2)C=C1)c1ccccc1", "target or system": "Kluyveromyces marxianus", "assay": "broth dilution", "system": "ATCC 204093", "setting": "48 h, 37 °C", "measurement": "MIC", "result": "64 µg/mL"}
{"Structure (SMILES)": "CO[C@H]1/C=C/O[C@@]2(C)Oc3c(C)c(O)c4c(O)c(c(/C=N/N5CCN(C)CC5)c(O)c4c3C2=O)NC(=O)/C(C)=C\\C=C\\[C@H](C)[C@H](O)[C@@H](C)[C@@H](O)[C@@H](C)[C@H](OC(C)=O)[C@@H]1C", "target or system": "Mycobacterium marinum", "measurement": "MIC", "result": "10 µM"}
{"Structure (SMILES)": "CC1(C)S[C@@H]2[C@H](NC(=O)[C@H](N)c3ccccc3)C(=O)N2[C@H]1C(=O)O", "target or system": "Pseudomonas aeruginosa", "system": "clinical isolate RKI-No_480/15", "measurement": "MIC", "result": "> 16 µg/mL"}
{"Structure (SMILES)": "COc1ccc(CNc2ccc(C(=O)O)cc2)cc1OC", "target or system": "Salmonella enterica", "measurement": "MIC", "result": "64 µg/mL"}
{"Structure (SMILES)": "CC1(C)S[C@@H]2[C@H](NC(=O)[C@H](N)c3ccccc3)C(=O)N2[C@H]1C(=O)O", "target or system": "Salmonella enterica", "setting": "20 h, pH 5.5", "measurement": "MIC", "result": "1 µg/mL"}
{"Structure (SMILES)": "N=C(N)c1cccc(OCc2ccc(COc3cccc(C(=N)N)c3)cc2)c1", "target or system": "Escherichia coli", "system": "BW25113", "setting": "in combination, lowest-FICI combination, with: vancomycin", "measurement": "MIC", "result": "200 µg/mL"}
{"Structure (SMILES)": "CCOC(=O)C1=C(C)NC(C)=C(C(=O)OC)C1c1cccc(Cl)c1Cl (centres unmarked)", "target or system": "Nedd8-cullin1 interaction", "assay": "neddylation, AlphaScreen", "setting": "100 µM", "measurement": "inhibition", "result": "7.1%"}
{"Structure (SMILES)": "N=C(N)c1ccc(OCCCCCOc2ccc(C(=N)N)cc2)cc1", "target or system": "Escherichia coli", "system": "BW25113", "setting": "compound alone, vancomycin checkerboard", "measurement": "MIC", "result": "200 µg/mL"}
{"Structure (SMILES)": "COc1cc(CNc2ccc(C(=O)O)cc2)ccc1O", "target or system": "Salmonella enterica", "measurement": "MIC", "result": "64 µg/mL"}
{"Structure (SMILES)": "N=C(N)c1ccc(OCc2cccc(COc3ccc(C(=N)N)cc3)c2)cc1", "target or system": "Escherichia coli", "system": "mcr-2 polymyxin-resistant", "setting": "20 h, compound alone", "measurement": "MIC", "result": "100 µg/mL"}
{"Structure (SMILES)": "NOCC(=O)O", "target or system": "Candida tropicalis", "system": "CT2", "measurement": "MIC", "result": "1000 µg/mL"}
{"note": "Repeated from above:"}
{"Structure (SMILES)": "CO[C@H]1/C=C/O[C@@]2(C)Oc3c(C)c(O)c4c(O)c(c(/C=N/N5CCN(C)CC5)c(O)c4c3C2=O)NC(=O)/C(C)=C\\C=C\\[C@H](C)[C@H](O)[C@@H](C)[C@@H](O)[C@@H](C)[C@H](OC(C)=O)[C@@H]1C", "target or system": "Mycobacterium marinum", "measurement": "MIC", "result": "10 µM"}
{"Structure (SMILES)": "CC1(C)S[C@@H]2[C@H](NC(=O)[C@H](N)c3ccccc3)C(=O)N2[C@H]1C(=O)O", "target or system": "Pseudomonas aeruginosa", "system": "clinical isolate RKI-No_480/15", "measurement": "MIC", "result": "> 16 µg/mL"}
{"Structure (SMILES)": "COc1ccc(CNc2ccc(C(=O)O)cc2)cc1OC", "target or system": "Salmonella enterica", "measurement": "MIC", "result": "64 µg/mL"}
